Published values gathered from unrelated publications.
Compare with care: the assays were run in different laboratories. ± marks the error that the study gave.
Cell line: SH-SY5Y

CC(C)C[C@H](NC(=O)[C@H](CCCCN)NC(=O)[C@H](CCC(N)=O)NC(=O)[C@@H](N)Cc1c[nH]cn1)C(=O)N[C@H](C(=O)NCCCC[C@@H]1NC(=O)[C@H](CC(=O)N[C@@H](Cc2ccccc2)C(=O)N[C@@H](Cc2ccccc2)C(=O)N[C@@H](C)C(=O)N[C@@H](CCC(=O)O)C(=O)N[C@@H](CC(=O)O)C(N)=O)NC1=O)C(C)C — viability (10 µM, 24 h; relative to: PBS control): ~93%
O=c1oc2c(CNCCc3cccc(F)c3)c(O)ccc2c2c1CCC2 — viability (50 µM, 24 h): 98 ± 0.34%
CC[C@H](C)[C@@H]1NC(=O)CNC(=O)[C@H](CCSC)NC(=O)[C@H](C(C)C)NC(=O)[C@H]([C@@H](C)O)NC(=O)[C@@H]2CSSC[C@@H]3NC(=O)[C@H](Cc4c[nH]cn4)NC(=O)[C@@H](NC(=O)[C@@H](NC(=O)[C@H](Cc4ccccc4)NC(=O)[C@H](C)N)[C@@H](C)O)CSSC[C@@H](C(=O)N[C@@H](CC(C)C)C(=O)O)NC(=O)[C@H](CSSC[C@H](NC(=O)[C@H](CO)NC(=O)[C@H](CCCNC(=N)N)NC(=O)[C@H](CCCNC(=N)N)NC3=O)C(=O)N[C@@H](Cc3ccc(O)cc3)C(=O)N[C@@H](CO)C(=O)N[C@@H]([C@@H](C)O)C(=O)N[C@@H](CCC(=O)O)C(=O)N[C@@H](Cc3ccc(O)cc3)C(=O)N[C@@H](CO)C(=O)N[C@@H](Cc3ccc(O)cc3)C(=O)NCC(=O)N[C@@H]([C@@H](C)O)C(=O)N2)NC(=O)[C@H](Cc2ccccc2)NC(=O)[C@H](CCCNC(=N)N)NC(=O)[C@H](Cc2c[nH]cn2)NC(=O)[C@H](CC(N)=O)NC1=O — reduction of cytotoxicity (LDH release; 0.1 µM, 24 h, added: amyloid-beta 20 µM): 24%
O=c1c(Nc2ccccc2)c(NC2CCN(Cc3ccccc3)CC2)c1=O — viability (MTT; 12.5 µM, 24 h): 117.1 ± 0.46%
O=C1CCCC2=C1C(c1c[nH]c3ccccc13)n1c(sc(=Cc3c[nH]c4ccccc34)c1=O)=N2 (stereo not drawn) — viability (cell growth or viability, MTT; 10 µM): 96.8%
COc1ccc([C@@H]2N=NC(NCCc3c[nH]c4ccc(C)cc34)=NC2=O)cc1 — viability (100 µM, 24 h): 97.1 ± 0.08%
Cc1ccc(CCNc2c(NC3CCN(Cc4ccccc4)CC3)c(=O)c2=O)cc1 — viability (MTT; 6.25 µM, 24 h): 107.8 ± 0.69%
COCCN1COc2c(cc3c4c(c(=O)oc3c2C)CCC4)C1 — viability (100 µM, 24 h): 88.7 ± 0.77%
O=c1c(Nc2ccc(O)cc2)c(NC2CCN(Cc3ccccc3)CC2)c1=O — viability (MTT; 6.25 µM, 24 h): 102 ± 1.49%

Repeated from above:
O=c1c(Nc2ccc(O)cc2)c(NC2CCN(Cc3ccccc3)CC2)c1=O — viability (MTT; 6.25 µM, 24 h): 102 ± 1.49%
